Published values collected from several papers.
Parts stem from different laboratories: compare values within a part only.

Block 1
Target: Interferon regulatory factor 7, full length, phosphomimetic (IRF7, Homo sapiens, UniProt Q92985, residues 1-503, S471D/S472D/S475D/S476D/S477D/S483D/S484D/S487D)
Technique: protein-binding microarray
Form: double-stranded DNA, one strand shown
Medium: in vitro
Tested at: 2200 nM top
Setting: 60-bp whole probe
Added: salmon DNA 0.4 mg/ml
Relative to: random background probes
Direction: higher = stronger binding
Endpoint: fitted relative affinity
All sequences stand within: GCCTAGCAC … GTCTTGATTCGCTTGACGCTGCTG
Target sequence (chain): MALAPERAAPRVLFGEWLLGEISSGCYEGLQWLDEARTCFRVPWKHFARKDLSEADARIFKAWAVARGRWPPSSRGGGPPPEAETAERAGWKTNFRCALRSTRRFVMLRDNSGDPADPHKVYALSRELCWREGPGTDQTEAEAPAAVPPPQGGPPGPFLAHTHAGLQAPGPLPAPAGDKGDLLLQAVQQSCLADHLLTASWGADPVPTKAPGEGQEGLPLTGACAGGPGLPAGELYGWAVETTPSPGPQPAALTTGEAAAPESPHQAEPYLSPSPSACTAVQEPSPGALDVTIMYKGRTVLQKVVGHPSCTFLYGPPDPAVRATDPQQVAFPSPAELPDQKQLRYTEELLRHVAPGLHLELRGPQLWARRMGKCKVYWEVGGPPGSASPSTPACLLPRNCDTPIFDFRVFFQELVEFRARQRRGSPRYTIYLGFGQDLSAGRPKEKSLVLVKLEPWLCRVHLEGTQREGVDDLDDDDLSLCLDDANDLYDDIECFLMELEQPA
Sequence = TCAGCTACACATCTCACACTGTGCTAG; value = 0.964 z-score
Sequence = GACGAACTGAGTCTCGACACGTGCTAG; value = 0.0972 z-score
Sequence = GACGGTCTCCTTATCCTGAAGTGCTAG; value = 0.911 z-score
Sequence = GACGGACTGGACTTTCCGGACGTGCTA; value = 0.267 z-score
Sequence = GACGGACAGCTTATCCTGACGTGCTAG; value = 0.0655 z-score
Sequence = TTAGATTCCAGTTACGATTAGTGCTAG; value = 1.8 z-score
Sequence = TCATCTCTGTTTATGTCACTGTGCTAG; value = 1.95 z-score
Sequence = TCACTCACTCACAGACTCACGTGCTAG; value = 1.08 z-score
Sequence = GACGGTATCCTTTGCCTGACGTGCTAG; value = 0.684 z-score
Sequence = GACGGTTTCGGTATCGGCACGTGCTAG; value = 7.56 z-score
Sequence = TTACGTATCGGGTATCGGTTAGTGCTA; value = 1.77 z-score
Sequence = TTAGGTCTCCTACTGCTCTAGTGCTAG; value = 0.504 z-score
Sequence = CCTCTTTTTTGTTCCACGCCGTGCTAG; value = 2.58 z-score
Sequence = GACGATATCAGTCTGGAGACGTGCTAG; value = 0.00111 z-score
Sequence = CCAACACTCGGTTTCCAAATGTGCTAG; value = 4.76 z-score

Block 2
Target: Ras GTPase-activating protein-binding protein 1, RRM domain (G3BP1, Homo sapiens, UniProt Q13283)
Sequence of UniProt Q13283 (whole entry, looked up): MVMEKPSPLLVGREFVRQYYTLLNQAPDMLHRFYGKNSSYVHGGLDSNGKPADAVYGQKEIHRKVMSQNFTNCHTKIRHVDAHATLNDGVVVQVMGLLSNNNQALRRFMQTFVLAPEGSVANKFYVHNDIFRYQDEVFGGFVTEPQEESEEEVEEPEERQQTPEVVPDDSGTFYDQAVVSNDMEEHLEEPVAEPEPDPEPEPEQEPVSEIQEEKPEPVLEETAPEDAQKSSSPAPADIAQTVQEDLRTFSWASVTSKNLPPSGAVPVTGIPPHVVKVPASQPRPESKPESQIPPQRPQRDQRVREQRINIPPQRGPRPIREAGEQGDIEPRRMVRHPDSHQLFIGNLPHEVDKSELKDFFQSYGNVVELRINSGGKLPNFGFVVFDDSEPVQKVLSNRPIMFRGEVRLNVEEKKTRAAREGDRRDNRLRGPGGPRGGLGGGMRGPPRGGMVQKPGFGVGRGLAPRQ
Technique: RNA Bind-n-Seq
Form: RNA
Medium: in vitro
Tested at: 1 µM
Setting: whole 134-nt RNA, ends assumed
Added: 150 mM KCl
Relative to: input library
Direction: higher = stronger binding
Endpoint: log2 enrichment
All sequences stand within: GGGAGUUCUACAGUCCGACGAUC … UGGAAUUCUCGGGUGUCAAGG
Sequence = AAAUGGUAGUGUGCGGAGUUUUUUUUUCUUCCUUCUUUUAAAAAUGGUUGUUUAAGACUUUAACAAUGGGAACCCCUUGUGAGCAUGCUC; value = -0.866
Sequence = CCUGUGCUACACAUCGUAUGUACCGAAUCGGGGAAAAAAAGGGGAAAAAGGGGAAAGGGGAAAGUAUUAUGUUACGCCGUUCGGAUCUGC; value = 0.802
Sequence = AGUCCUGUGCUACACAUCGUAUGUACCGAAUCGGGGUGGGGAAAAAGGGGAAAGGGGAAAGUAUUAUGUUACGCCGUUCGGAUCUGCACU; value = 1.22
Sequence = AAGUCCUGUGCUACACAUCGUAUGUACCGAAUCGGAAAAAGGGAAAAAGGAAAAAGGAAAGUAUUAUGUUACGCCGUUCGGAUCUGCACU; value = -0.000897
Sequence = GUCCUGUGCUACACAUCGUAUGUACCGAAUCGGGGCCCCCGGGGCCCCCGGCCCCCGGGAAAGUAUUAUGUUACGCCGUUCGGAUCUGCA; value = -0.522
Sequence = GUCCUGUGCUACACAUCGUAUGUACCGAAUCGGGGUUUUGGGGUUUUGGGUUUUGGGGAAAGUAUUAUGUUACGCCGUUCGGAUCUGCAC; value = 0.349
Sequence = UGGGAGGUGGAUUUUGUUUAUUUUUUUAGCUCAUUUCCAGGGGUGGCAAUUUUUUUUUAAUAUGUGUCAUGAAUAAAGUUGUUUUUGAAA; value = 2.07
Sequence = CAAGUCCUGUGCUACACAUCGUAUGUACCGAAUCGGAAAGGUUUUUGGAAAAAGGAAAGUAUUAUGUUACGCCGUUCGGAUCUGCACUUC; value = -0.261

Block 3
Target: Histone acetyltransferase KAT6A, both winged helices, GST fusion (KAT6A, Homo sapiens, UniProt Q92794, residues 1-181)
Technique: protein binding microarray
Form: double-stranded DNA, one strand shown
Medium: in vitro
Tested at: not given
Setting: 8-mer, flanks averaged, mean of 2 arrays, mostly near background
Relative to: not given
Direction: higher = stronger binding
Endpoint: E-score
Residues (chain): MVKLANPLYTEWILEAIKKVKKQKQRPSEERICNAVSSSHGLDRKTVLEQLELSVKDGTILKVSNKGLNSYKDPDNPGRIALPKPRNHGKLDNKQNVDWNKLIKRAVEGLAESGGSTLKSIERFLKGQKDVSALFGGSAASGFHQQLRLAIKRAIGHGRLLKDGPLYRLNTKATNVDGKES
Sequence = GGAACTGA; value = -0.00245
Sequence = CATATGCC; value = -0.0767
Sequence = GCAACCAC; value = -0.151
Sequence = ACGGATGC; value = 0.205
Sequence = CGGTACTA; value = 0.188
Sequence = CATAACCG; value = 0.0625
Sequence = AAAGCGTC; value = 0.0714
Sequence = CACGGGCA; value = 0.226
Sequence = ATTACAAC; value = -0.019
Sequence = AATTCTAG; value = -0.161
Sequence = AGAGGCCT; value = -0.144
Sequence = CGGCAGGC; value = 0.165

Further values, each from its own experiment
Substance = PhoQ, residues 284 288 289 292 302 303 SNGLAW; target = PhoP, residues 12 14 15 18 19 SYFRT (Escherichia coli, UniProt P23836); test = Sort-seq, item: YFP reporter; system = E. coli; conditions = PhoQ-PhoP variant library, added: 10 µM Mg2+; scale = relative to: high Mg2+ state, higher = stronger signaling; endpoint = fold induction; value = 13.3

Some of these lines once more (block 1):
Sequence = TTAGATTCCAGTTACGATTAGTGCTAG; value = 1.8 z-score
Sequence = TCATCTCTGTTTATGTCACTGTGCTAG; value = 1.95 z-score
Sequence = TCACTCACTCACAGACTCACGTGCTAG; value = 1.08 z-score
Sequence = GACGGTATCCTTTGCCTGACGTGCTAG; value = 0.684 z-score
